Experimental data of several laboratories.
Lines come from different studies, so protocols differ. pEC50, pIC50: −log10 of the molar value.
Chain of UniProt Q15759 (whole entry, looked up): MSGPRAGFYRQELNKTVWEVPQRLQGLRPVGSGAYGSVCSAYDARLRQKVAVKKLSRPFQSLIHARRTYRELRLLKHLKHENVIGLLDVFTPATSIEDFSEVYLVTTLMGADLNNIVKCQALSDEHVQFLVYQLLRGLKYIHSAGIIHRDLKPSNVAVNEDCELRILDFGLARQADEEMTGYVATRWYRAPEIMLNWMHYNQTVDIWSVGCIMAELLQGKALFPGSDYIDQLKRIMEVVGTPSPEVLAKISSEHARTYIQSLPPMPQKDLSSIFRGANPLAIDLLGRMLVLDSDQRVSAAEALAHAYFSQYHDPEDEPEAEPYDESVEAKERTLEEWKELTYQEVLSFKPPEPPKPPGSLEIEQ

CN1C(=O)C(C2C3=C(CC(C)(C)CC3=O)Oc3c(O)cccc32)C(=O)N(C)C1=O (stereo not drawn)
mean lipid content (3T3-L1 mature adipocytes; lipolysis, Oil Red O staining; IC20): 0.665 OD492

O=C(NC1CCCCCCC1)c1cc(-c2ccc(F)cc2F)c[nH]1
IC50 (Vero; 48 h): 16.9 µg/mL

CNc1ncc2c(/C=C/C(=O)N3CCC4(CC3)OCCO4)nn(Cc3cccc(C)c3)c2n1
pEC50 (EPC-2 pre-malignant; cell viability, PrestoBlue; 120 h): 6.04

CC[C@H](C)[C@@H]1NC(=O)[C@@H]2CCCN2C(=O)[C@H](CC(C)C)NC(=O)[C@H](CC(C)C)NC(=O)CNC(=O)[C@@H](NC(=O)[C@@H](NC(=O)[C@H](CC(=O)O)NC(=O)CNC(=O)[C@@H](NC(=O)[C@H](C)NC(=O)CNC(=O)[C@H](CCCCN)NC(=O)[C@H](CC(C)C)NC(=O)[C@H](CC(C)C)NC(=O)[C@H](CCCCN)NC(=O)CNC(=O)[C@@H](NC(=O)[C@@H](N)CC(C)C)C(C)C)C(C)C)C(C)C)CSSC[C@@H](C(=O)O)NC1=O
log2 fold change (RNA-seq, item: Fam129a; mouse, traumatic brain injury model, frontal cortex and hippocampus; dose not given; baseline: TBI alone): -1.49

CP(=O)(O)CCCN
pIC50 (Plasmodium falciparum; HB3): 5.60

C[C@H]1CN(c2n[nH]c3nc(N[C@H]4CC[C@H](NS(=O)(=O)CCC(F)(F)F)CC4)ncc23)CCO1
remaining binding (MAPK11 (Homo sapiens, UniProt Q15759); Kinobeads competition; HEK293, K562, placenta lysate; 0.032 µM, unit not given; baseline: vehicle): 0.82

CC[N+](CC)(CC)CCOc1ccc(/C=C/c2ccccc2)cc1
pIC50 (Plasmodium falciparum; W2): 6.40

CC[C@H](C)[C@H](NC(=O)[C@H](Cc1ccccc1)NC(=O)[C@H](CCC(=O)O)NC(=O)[C@H](CCCNC(=N)N)NC(=O)[C@H](C)NC(=O)[C@H](C)NC(=O)[C@H](CCC(N)=O)NC(=O)[C@H](CCC(=O)O)NC(=O)[C@H](CCC(=O)O)NC(=O)[C@H](CC(C)C)NC(=O)[C@H](Cc1ccc(O)cc1)NC(=O)[C@H](CO)NC(=O)[C@H](CO)NC(=O)[C@@H](NC(=O)[C@H](CC(=O)O)NC(=O)[C@H](CO)NC(=O)[C@@H](NC(=O)[C@H](Cc1ccccc1)NC(=O)[C@@H](NC(=O)CNC(=O)[C@H](CCC(=O)O)NC(=O)[C@H](C)NC(=O)CCc1c[nH]cn1)[C@@H](C)O)[C@@H](C)O)C(C)C)C(=O)N[C@@H](C)C(=O)N[C@@H](Cc1c[nH]c2ccccc12)C(=O)N[C@@H](CC(C)C)C(=O)N[C@H](C(=O)N[C@@H](CCCNC(=N)N)C(=O)NCC(=O)N[C@@H](CCCNC(=N)N)C(=O)N[C@@H](CCCCNC(=O)COCCOCCNC(=O)COCCOCCNC(=O)CC[C@H](NC(=O)CCCCCCCCCCCCCCCCC(=O)O)C(=O)O)C(=O)NCC(=O)NCC(=O)N[C@@H](CO)C(=O)N[C@@H](CCCCNc1c(NCCCCCN(O)C(=O)CCC(=O)NCCCCCN(O)C(=O)CCC(=O)NCCCCCN(O)C(C)=O)c(=O)c1=O)C(=O)O)C(C)C [zirconium-89 labelled]
tissue uptake (rat, intestine content; intravenous, 3 nmol/kg, 72 h): 0.06 %ID/g

Cn1c(SCc2ccc(Cl)cc2)nnc1-c1cncc(C#Cc2ccccc2)c1
selectivity index (Vero; baseline: Vero CC50 over Mtb IC50): > 46

COc1ccc2c(c1)c(CCN1CCOCC1)c(C)n2C(=O)c1cccc(Cl)c1Cl
viability decrease (TC-71; trypan blue exclusion; 10 µM, 48 h): ~30%

O=C(NC12CC3CC(CC(C3)C1)C2)c1cc(-c2ccc(Cl)cc2)c[nH]1
IC50 (Vero; 48 h): > 64 µg/mL

COc1ccc(-n2nc(C(C)=O)s/c2=N\N=C(/C)c2ccc(NC(C)=O)cc2)cc1
toxicity (HepG2; 2.5 µM): 94.3%

O=C1NC(=O)C(C2C3=C(CCCC3=O)Oc3ccc([N+](=O)[O-])cc32)C(=O)N1 (stereo not drawn)
mRNA level (mouse preadipocytes; qPCR, item: C/EBPα; IC20, 14 days, adipogenic induction; baseline: untreated cells): decreased

CCCCCCC#Cc1cncc(-c2nnc(SCc3ccc(Cl)c(F)c3)n2C)c1
selectivity index (Vero; baseline: Vero CC50 over Mtb IC50): > 23

O=C(NC1CCCCCCC1)c1cc(-c2ccncc2Cl)c[nH]1
IC50 (Vero; 48 h): > 64 µg/mL
